Published values of several laboratories.
Every numbered part comes from another study and shows a few of its results, in no order.

Block 1 — method: RNA Bind-n-Seq; molecule type: RNA; matrix: in vitro; concentration: 365 nM; reference: no-protein control; direction: higher = stronger binding
Target: RNA binding protein fox-1 homolog 2, RRM domain, GST-SBP tag (RBFOX2, Homo sapiens, UniProt O43251-10, residues 100-194)
Setting: natural RNA segment, single round, ends assumed
Shared flanks, not repeated: GGGAGUUCUACAGUCCGACGAUC … UGGAAUUCUCGGGUGCCAA
Target sequence (chain): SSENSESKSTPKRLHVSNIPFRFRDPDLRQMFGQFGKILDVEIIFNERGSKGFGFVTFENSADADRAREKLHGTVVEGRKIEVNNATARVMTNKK
Strand	RBNS enrichment (R)
ACUAGAGGUGGGUGACCUAUGGUUAUGUGGCACGGCAAAGCAAGUACCUCUUAAGGGACUCUAAUAUAUGCUAACGCUGGUCCUCUUAGCUCUGUGCUCUCACCAGACAA	0.305
AUUUAUGUUUCUUUGGAUCCUCAUUGCCUCAAAGCAGCAUACUUAAUUUUUGUUUAUUUAUUGUGAGCUUUUUACUUUAAGAUUUUACAUGAGUAAUCAAAAUUAAAUUA	0.479
GUAUGUGAGUGUCUGGAGACAGCAUAGCUGACCCCAAUCCCCCAGGGCUGAGGACCCCUCCAGGCCCCUCUCUCCUGGAAGUGCUGCAUAUGCCCCUGUGCCCAGUGGUU	0.5
GGUAUUGAGGGGAGUCAGCAUGUAUUUGCAGCUUAUGUUCAUGGGCAUAUAUAAACAUGUGUAUGUGCAAUAUAUCGAUAUAGAAUUCUGCCAAAAAUCAAGGUUUAAAA	1.2
CAGCACUCACCUGAACUGUGGCUGAUUUGGUCCCAGUCCAGCUGGGGAGGUGUUUGGCUGACAAGGAGGCAAGAGAUCCCCUCCCAGGGAACAGGAGGACUGGGCUUAGC	0.527
UAUGCAUGCAGGUAACAAGAGUGAAAGCAGAGCUGACAUUUGCCAGGCUUUCCUGGAGCAGGCCAGUGAGUGUAGACGUGUGUAAAGAUGUCGCCAGUUCUCACUGUCUG	21.1
AUGAUAUAGCAAUCUACCUUAUAUAGAGCCUUCAGAAACUGUGAGUGGAAGUGAGUGAAGCGUAUGACUGCUGGUGAUCAGUGAAUCUGUGAGAGAAUGUGUGCAACUAC	3.14
AGGCCCCUGUGAUUUUCUCACAUAGGUGUCUUCUCAGUUCUGUCAAAUUCCUGAUGUUCUGCAAUACUCAGAAAAUUCUUUGAAUGGCAGACUUUCUUUUGUCUGUUUCU	0.26
AACAUUGUAUGUAUAUGUGUUUGCUUUGGGAGGAGGUGGCACUGUGUUAGUUGACAGUUGUGGGCUCAUGUAGUCUUUUUUGCCAUGAGUAGGAGCCCCUAGUGGGGCUG	2.92
CAUUCUUGGCCUUCCUAAUCACUCCCCACUCCUCUAGUCACAGUGUGGCUGAGGACUCAAGGCUGUGAAGACCAGGAGUUCCUGCUCUUGACAUUAUUCCUCCCACUUUG	0.227
ACUUUAACAGCUGUUCCCGAAAGGGUUAGGACCAACUGCAAGUUAAUGUGGGUUGUAAAUGUUCCCCUAACUUCUGUUUCUUCUGAAGAGAAAAUAAACCUUUUUCCCCC	0.51

Block 2 — method: protein-binding microarray; molecule type: double-stranded DNA, one strand shown; matrix: in vitro; concentration: 250 nM; setting: 60-bp whole probe; with: salmon DNA 0.4 mg/ml; reference: random background probes; direction: higher = stronger binding; shared flanks, not repeated: GCCTAGCAC … GTCTTGATTCGCTTGACGCTGCTG
Target: Interferon regulatory factor 7, full length, phosphomimetic (IRF7, Homo sapiens, UniProt Q92985, residues 1-503, S101K/S471D/S472D/S475D/S476D/S477D/S483D/S484D/S487D)
Construct (chain): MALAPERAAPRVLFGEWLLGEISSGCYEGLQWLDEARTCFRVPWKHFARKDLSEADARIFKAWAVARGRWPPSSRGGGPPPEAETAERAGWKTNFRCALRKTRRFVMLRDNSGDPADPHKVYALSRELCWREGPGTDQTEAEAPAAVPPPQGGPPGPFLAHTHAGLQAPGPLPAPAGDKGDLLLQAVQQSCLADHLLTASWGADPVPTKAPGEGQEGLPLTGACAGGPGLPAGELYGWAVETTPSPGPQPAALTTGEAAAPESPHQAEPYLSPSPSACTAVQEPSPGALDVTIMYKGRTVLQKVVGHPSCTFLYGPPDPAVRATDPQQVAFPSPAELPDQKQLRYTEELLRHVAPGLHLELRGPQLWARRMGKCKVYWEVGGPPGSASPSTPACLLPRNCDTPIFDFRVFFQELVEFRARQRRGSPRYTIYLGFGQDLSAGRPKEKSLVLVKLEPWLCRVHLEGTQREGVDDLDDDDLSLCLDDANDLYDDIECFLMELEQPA
Strand	log fluorescence
TTAGGTCTCGGTATCGCTTAGTGCTAG	2.65 z-score
TTAGTTTTCGACACTGGGTTAGTGCTA	0.908 z-score
GAAGATATCAGACTGGAGACGTGCTAG	-0.21 z-score
GACGGTCTCCTTCTTCTGACGTGCTAG	0.163 z-score
TTCGGACTGGGGACTGGGTTAGTGCTA	-0.218 z-score
GACGGTTACCTTATCCTGACGTGCTAG	-0.17 z-score
GACGATCTCAGCCTCGAGACGTGCTAG	0.0313 z-score
TCATCCATGGGTATGGCACTGTGCTAG	0.305 z-score
TTAGATTTCAGTTTCGAGTAGTGCTAG	5.25 z-score

Block 3 — method: RNA Bind-n-Seq; molecule type: RNA; matrix: in vitro; concentration: not given; reference: input RNA pool; direction: higher = stronger binding
Target: RING finger protein unkempt homolog, zinc fingers 1-6, GST-SBP tag (UNK, Homo sapiens, UniProt Q9C0B0, residues 30-357)
UniProt Q9C0B0, sequence (30-357, looked up): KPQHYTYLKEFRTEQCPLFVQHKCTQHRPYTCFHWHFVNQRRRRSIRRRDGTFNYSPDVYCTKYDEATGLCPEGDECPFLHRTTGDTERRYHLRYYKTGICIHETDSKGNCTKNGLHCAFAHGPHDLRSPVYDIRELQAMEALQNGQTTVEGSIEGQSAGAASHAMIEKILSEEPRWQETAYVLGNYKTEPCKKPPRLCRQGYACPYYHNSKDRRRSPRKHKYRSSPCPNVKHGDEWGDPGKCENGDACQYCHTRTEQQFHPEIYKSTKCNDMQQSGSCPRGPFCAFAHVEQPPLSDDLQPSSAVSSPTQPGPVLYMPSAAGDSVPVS
Setting: RNA with constant flanks, human-mouse chimeric sites, ends assumed
Shared flanks, not repeated: GGGAGUUCUACAGUCCGACGAUC … CAACAGAGGAUUGAGCAUCA
Strand	bound/input enrichment [ratio]
UACUCAACUUUCUUGCCACAUUUUGAAUUCCAAGACAUUAUUCCUCCAGAUGACUUCCUAACUAGUGAUGAAGAGCAAGAUUCCGUUUUAUUUGGAACUAUGAGAGGACAAGUUGUUGGA	0.393
CGAGACAAGACAUCCAGGAACAUGCGAGGCUCCCGGAUGAAUGGGUUGCCUAGCCCCACUCACAGCGCCCACUGUAGCUUCUACCGAACCAGAACCUUGCAGGCAUUGAGUAAUGAGAAG	0.116
AUGGAGAAGGAUUCUCUGCCCCGCUUUGUGCGCUCUGAAUUUUAUAAGGAGCUAAUCAAGUAGUAAUCUGGUCAGGCUAUGAAAUCAUGCCCUGUGAGUUGAGUUACAUCCUUUGUAGCA	0.203
AUGGAGAAGGAUUCUCUGCCUCGCUUUGUGCGCUCUGAAUUUUAUAAGGAGCUAAUCAAGUAGUCAUUUAGCCAGGCUUCCAAAAGUUGCCCUGUGAGUUGAGUUACAUCCUUUGUAGCA	0.454
CAGCUGCGAGGCCGCGGUUUCCCCCUGGGCCUCCCCAGCAGCAGCCAUGGGCAUCAAAUUUUUAGAAGUUAUCAAACCUUUCUGUGCAGUUCUACCAGAAAUUCAGAAACCGGAAAGGAA	0.801
UCCUGGUCGUGUCCCAGUGCAGGACGAUGUGAACAAAAACUCAAAGCGGACCCUCUAUUGUAGUUCUUGAUUCUCGAAAUGUGCUAUUAUUGUUUGUCUUUUUUUUUUUUUUUUUAAAGA	1.29

Further values, each from its own experiment
Substance	target	test	system	conditions	scale	endpoint	result
PhoQ, residues 284 288 289 292 302 303 SVHLDV	PhoP, residues 12 14 15 18 19 TQALL (Escherichia coli, UniProt P23836)	Sort-seq, measured: YFP reporter	E. coli	PhoQ-PhoP variant library, with: 10 µM Mg2+	reference: high Mg2+ state, higher = stronger signaling	fold induction	10.2

Some of these lines once more (block 3):
Strand	bound/input enrichment [ratio]
UACUCAACUUUCUUGCCACAUUUUGAAUUCCAAGACAUUAUUCCUCCAGAUGACUUCCUAACUAGUGAUGAAGAGCAAGAUUCCGUUUUAUUUGGAACUAUGAGAGGACAAGUUGUUGGA	0.393
AUGGAGAAGGAUUCUCUGCCUCGCUUUGUGCGCUCUGAAUUUUAUAAGGAGCUAAUCAAGUAGUCAUUUAGCCAGGCUUCCAAAAGUUGCCCUGUGAGUUGAGUUACAUCCUUUGUAGCA	0.454
AUGGAGAAGGAUUCUCUGCCCCGCUUUGUGCGCUCUGAAUUUUAUAAGGAGCUAAUCAAGUAGUAAUCUGGUCAGGCUAUGAAAUCAUGCCCUGUGAGUUGAGUUACAUCCUUUGUAGCA	0.203
CGAGACAAGACAUCCAGGAACAUGCGAGGCUCCCGGAUGAAUGGGUUGCCUAGCCCCACUCACAGCGCCCACUGUAGCUUCUACCGAACCAGAACCUUGCAGGCAUUGAGUAAUGAGAAG	0.116
